Assay results of several laboratories.
Each numbered part is a random draw from the data of one study; scales do not carry over between parts.

Set 1
Target: Phosphate system positive regulatory protein PHO4, full length, GST-tagged (PHO4, Saccharomyces cerevisiae, UniProt P07270, residues 1-312)
Technique: competition protein-binding microarray
Form: double-stranded DNA, one strand shown
Medium: in vitro
Concentration: 2 µM
Setting: whole 60-bp probe, lowest competitor level
Added: Cbf1 competitor, 0.05 µM
Direction: higher = stronger binding
Constant ends, left off below: … GTCTTGATTCGCTTGACGCTGCTG
Target sequence (chain): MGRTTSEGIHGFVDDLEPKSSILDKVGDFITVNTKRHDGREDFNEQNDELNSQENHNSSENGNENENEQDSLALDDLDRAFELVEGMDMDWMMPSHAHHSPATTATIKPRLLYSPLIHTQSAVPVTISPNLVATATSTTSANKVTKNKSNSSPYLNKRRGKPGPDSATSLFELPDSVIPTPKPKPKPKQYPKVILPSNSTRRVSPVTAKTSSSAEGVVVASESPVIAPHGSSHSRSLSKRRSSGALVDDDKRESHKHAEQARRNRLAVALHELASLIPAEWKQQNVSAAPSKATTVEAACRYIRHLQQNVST
Sequence | fluorescence intensity
CCAAAGGTAACTTAGCGTGTGATATCACCGGAAGAG | 4710 a.u.
GTCTTGTCTCATTGAGCCGTGGGTGTCCCCACTTCA | 5420 a.u.
ATATGCCAGGCAAATAACGTGTCGGTGATTGTGAAG | 8950 a.u.
CGTCCTAGTGATTGCCGGGTGGGTGCCATGAGGAAG | 6950 a.u.
TTATCAGTTCTACAGCACGCAGAGAAAAGTAAACGA | 8370 a.u.
CAACAAGGAGGATGGCATGTGGATACTACTTTCTTG | 8980 a.u.
TGGAAGTGTGTGAATTTCGTGATGGAATTATTGTCA | 5140 a.u.
CGTCCTAGTGATTTTCACGTGGTCTCCATGAGGAAG | 13200 a.u.
CTTTCCCGATCTTGTACTGTGGGTGTAGCACATTTG | 5040 a.u.
ATGCGAGCGAACCGGCACATGTACCAAACTTTATCA | 10900 a.u.
CTTGTTATTTACGGCCACGGGGACACTATTATGGTT | 11600 a.u.
TGCGCAACAACTTGTAGTGTGGGTGTATGTCTAGAA | 5910 a.u.
ACCAGCGTTGGACGCGTCGTGCGGATTCGTTCTTGT | 7570 a.u.
CGGGGTTAAGTTTGTCACTGCACTTGCTTGCAGCAG | 3600 a.u.
CGCTTCCCAGCTTTTCACGTGCGATGTGGACTAATA | 14200 a.u.
AGTACATTCACTTCTAACGTGACGGGTTTCACCACA | 5020 a.u.
AAATTACTAAGTTGGCTAGTGGGTGACGCCGTATGA | 3670 a.u.
CGGGGTTAAGTTTGGTTGGTGGGTGGCTTGCAGCAG | 4990 a.u.
CGGCAAGACATGTCCCACGTTATAAGGCAATTTCCA | 9290 a.u.
CTAACGAAGGTTTGGGCCGTGGGTGACAAGCCAAGT | 5400 a.u.
ACCCAACAATTAAAATCCGTGATGGTTTAATGGTCA | 4460 a.u.
CACTAAATTTGGAAGCTCGTGTACTCATAAACAATT | 10800 a.u.
GTCTTGTCTCATTTTCACGTGCGCTTCCCCACTTCA | 15700 a.u.
CTTCTGTAAATTTGTACGGTGGGTGGACGCGCCCCG | 3960 a.u.
GTCTTGTCTCATTGGAGAGTGGGTGTCCCCACTTCA | 4320 a.u.

Set 2
Target: Protein max, full length (MAX, Homo sapiens, UniProt P61244-2, residues 1-151)
Technique: protein-binding microarray
Form: double-stranded DNA, one strand shown
Medium: in vitro
Concentration: not given
Setting: k-mer, scored over probes, only values ≥0.25
Direction: higher = stronger binding
Sequence | E-score
AAAGCACA | 0.312
ACACCATG | 0.347
GTGTGTCA | 0.255
CATGGACA | 0.323
AGGCCATG | 0.259
CATGCGCC | 0.439
CACACGAG | 0.412
CGTGATCA | 0.332
ATGCATGC | 0.403
ACATGGCA | 0.385
GCGTGCGA | 0.401
CGTGTAAC | 0.326
CGTGGGAA | 0.384
CCCCATGA | 0.3
ACGTGAAG | 0.309
ACGTGGGC | 0.444
TGGCCACA | 0.366
GTGGCAGA | 0.271
GGCACCAC | 0.255
AAGCCACG | 0.364
GCGTGACA | 0.423
CAGTGTGA | 0.292
CACGAGAA | 0.356
ACACGTTG | 0.444
AAACACAT | 0.385

Set 3
Target: Interferon regulatory factor 5, full length, phosphomimetic (IRF5, Homo sapiens, UniProt Q13568-2, residues 1-514, S451D/S453D/S456D/S462D)
Technique: protein-binding microarray
Form: double-stranded DNA, one strand shown
Medium: in vitro
Concentration: 940 nM top
Setting: 60-bp whole probe
Added: salmon DNA 0.4 mg/ml
Reference: random background probes
Direction: higher = stronger binding
Constant ends, left off below: GCCTAGCAC … GTCTTGATTCGCTTGACGCTGCTG
Sequence | fitted relative affinity [z-score]
TTATGTTTCGGGACTGGGTTAGTGCTA | 3.41
TTAGGTATCCTATTGCTTTAGTGCTAG | 0.101
GACGAACTGGGGTTACGAGACGTGCTA | -0.0111
TTAGGTCTCCTCTTCCTTTAGTGCTAG | 0.501
TCAGGTTTCTATATTTGACTGTGCTAG | 3.56
GACGAACTGGGGTTTCGAGTCGTGCTA | 3.51
TTAGATATCAGTATCGATGAGTGCTAG | 3.48
TATTGTTTCCTCTTTCACTGGTGCTAG | 2.1
TTAGAACTGAGTCTCGATAAGTGCTAG | 2.28
TTAGGTCTGGGGTTTCGGTTAGTGCTA | 5.71
TTAGGTCACCTACTGCTTTAGTGCTAG | -0.252
TTAGGAATCGACTTTCGGTTAGTGCTA | 3.19
TTAGGTTTCGCGTATCGGTTAGTGCTA | 5.33
CTGAGGCTGCCGTGGCCATGGTGCTAG | -0.97
TTGGGTTTCGGGACTGGGTTAGTGCTA | 6.05
TCACTTCTTTTTTATTCTACTGTGCTA | 2.07
TTATATATCAGACTGGATTAGTGCTAG | -0.125
GACGGTCTTGGTCTCGGGACGTGCTAG | 0.709
TTGGGTCTGGGTATTTTTCTGTGCTAG | 0.341
GACGGACTGGATATCGGGACGTGCTAG | -0.539
TCAACTCTCAGAATCTCACTGTGCTAG | 1.2
TTAGGTATCGACACTGTGTTAGTGCTA | 5.07
TTAGGACAGGGGTATCGGTTAGTGCTA | 2.6

Set 4
Target: Sal-like protein 4, full length isoform A (SALL4, Homo sapiens, UniProt Q9UJQ4, residues 1-1053)
Chain of UniProt Q9UJQ4 (whole entry, looked up): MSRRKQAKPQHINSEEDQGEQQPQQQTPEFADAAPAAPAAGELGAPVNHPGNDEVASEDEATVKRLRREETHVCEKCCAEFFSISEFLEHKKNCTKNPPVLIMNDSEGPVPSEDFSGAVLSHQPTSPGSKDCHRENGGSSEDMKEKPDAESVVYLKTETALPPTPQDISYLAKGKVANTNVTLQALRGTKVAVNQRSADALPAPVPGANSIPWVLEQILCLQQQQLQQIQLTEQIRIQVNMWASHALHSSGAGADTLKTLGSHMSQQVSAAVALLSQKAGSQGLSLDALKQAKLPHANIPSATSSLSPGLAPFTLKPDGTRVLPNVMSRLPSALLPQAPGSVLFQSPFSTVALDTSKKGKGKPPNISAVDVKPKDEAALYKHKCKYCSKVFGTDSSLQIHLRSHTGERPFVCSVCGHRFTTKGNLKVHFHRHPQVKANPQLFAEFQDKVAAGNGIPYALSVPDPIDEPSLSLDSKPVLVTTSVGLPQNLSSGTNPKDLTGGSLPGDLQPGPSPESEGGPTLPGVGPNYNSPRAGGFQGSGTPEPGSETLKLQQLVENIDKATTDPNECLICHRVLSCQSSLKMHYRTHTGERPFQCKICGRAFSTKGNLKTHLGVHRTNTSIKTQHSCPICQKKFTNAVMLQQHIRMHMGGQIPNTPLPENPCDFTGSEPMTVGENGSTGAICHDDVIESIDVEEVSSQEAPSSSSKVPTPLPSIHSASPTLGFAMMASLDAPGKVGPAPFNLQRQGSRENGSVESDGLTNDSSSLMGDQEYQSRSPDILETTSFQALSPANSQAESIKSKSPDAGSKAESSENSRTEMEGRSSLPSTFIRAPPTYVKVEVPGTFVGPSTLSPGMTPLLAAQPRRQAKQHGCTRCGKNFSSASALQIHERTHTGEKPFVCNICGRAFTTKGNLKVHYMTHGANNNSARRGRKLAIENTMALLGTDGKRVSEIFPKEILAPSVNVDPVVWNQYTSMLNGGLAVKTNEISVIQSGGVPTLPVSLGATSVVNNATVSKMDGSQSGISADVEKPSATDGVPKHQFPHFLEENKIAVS
Technique: universal PBM
Form: double-stranded DNA, one strand shown
Medium: in vitro
Concentration: 600 nM
Setting: 8-mer, flanks averaged, mean of replicates
Direction: higher = stronger binding
Sequence | E-score
AGGCTCTA | -0.154
GGATCGTA | -0.0325
CCTGGATC | -0.242
CGGTCCTA | -0.26
ACGTTCCG | -0.251
ATGCTTTG | 0.199
CGTTGGTA | -0.076
AAAGGTTG | -0.0676
AGCTATCC | -0.24
AGAGAAAG | 0.0506
CAACTCGC | -0.0687
TCTGGCAA | 5.5e-05
AGATTTCC | -0.101
CCAACTAG | 0.0621
ATCACCAA | 0.138
CTTCTGGC | -0.147
ATCTTCAT | 0.219
ATCGGCAG | -0.118
GCTTTCCA | -0.0476
CCAGTTCA | -0.0731
GCCAGCAC | -0.209
AGTATAAT | 0.35
CCAGTCCC | -0.262
AACTAATA | 0.373
ACAGCTTG | -0.133

Set 5
Target: Histone acetyltransferase KAT6A, both winged helices, GST fusion (KAT6A, Homo sapiens, UniProt Q92794, residues 1-181)
Technique: protein binding microarray
Form: double-stranded DNA, one strand shown
Medium: in vitro
Concentration: not given
Setting: 8-mer, flanks averaged, mean of 2 arrays, mostly near background
Reference: not given
Direction: higher = stronger binding
Construct (chain): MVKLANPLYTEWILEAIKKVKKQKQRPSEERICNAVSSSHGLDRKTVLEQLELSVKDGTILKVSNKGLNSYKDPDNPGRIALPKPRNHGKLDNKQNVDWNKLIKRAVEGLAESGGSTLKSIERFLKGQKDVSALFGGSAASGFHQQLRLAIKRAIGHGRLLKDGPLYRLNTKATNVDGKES
Sequence | E-score
ACAGGCAA | -0.162
AATTCCGT | 0.181
AAACGTTC | 0.0429
CCCAGGGA | -0.121
AACCCGTT | 0.211
ACTTCGAG | -0.0157
GATAGCAC | 0.0535
TATTGAAA | -0.0878
CCTGGGAG | -0.121
CGTTCCTA | -0.0786
GCATAAAA | -0.0693
CGGTACAG | 0.202
CGGTACCC | 0.105
AAGTGAAA | -0.0262
CCTATGCG | 0.119
CCATGAAA | -0.145
AGGAATTG | -0.174
AAAAGACG | -0.00258
ACTCAAGT | -0.207

Set 6
Target: RNA binding protein fox-1 homolog 2, RRM domain, GST-SBP tag (RBFOX2, Homo sapiens, UniProt O43251-10, residues 100-194)
Technique: RNA Bind-n-Seq
Form: RNA
Medium: in vitro
Concentration: 365 nM
Setting: natural RNA segment, single round, ends assumed
Reference: no-protein control
Direction: higher = stronger binding
Constant ends, left off below: GGGAGUUCUACAGUCCGACGAUC … UGGAAUUCUCGGGUGCCAA
Residues (chain): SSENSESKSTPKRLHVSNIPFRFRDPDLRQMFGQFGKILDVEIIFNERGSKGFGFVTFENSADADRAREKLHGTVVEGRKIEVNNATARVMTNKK
Sequence | RBNS enrichment (R)
GCUGAUAAAAGCCAGUGGCAGCUGUCGUGGCUGUGCUUUGUACUGCUCUCUACCAUGAAAGUGUAAAUACUGUAAUGUCUAAUCUAUUUAUCACAACUGACUACUGGACC | 0.704
AUCAUGUGUUUUUUGUCUUUGGCUCUGUUUAUAUGCUGGAUUACAUUCAUUGAUUUGCGUAUAUUGAACCAGCCUUGCAUCCCAGGGAUGAAGCCCACUUGAUCAUGGUG | 0.394
GUGCUGACGAUUUUCACACUGUGUUUACCACUCCAUCACCUCUCAACCUUUGCUUCGACAGGUCUUCACUCACGAUUUAUUCCUCCAGGUCUUUGAUUGGAGAGAGUAAC | 0.444
GAACUGCCAAGAAAAGGCAUGGAGACAGCGAACUAGAAGAAAGGGCAAGAAGGAAAUAGCCACCGUCUACAGAUGGCUUAGUUAAGUCAUCCACAGCCCAAGGGCGGGGC | 0.587
UGUGUUUCUUGGAUAGGGGCCAGUGCAGUGCCAUCCUACAGGUGGCUGGAGCAGCUGCUUUGCAACCUGAUCACCUUGAGUUCUGAGCAGGGACUAGGCUUGCAGGUGAG | 0.776
UCUACCGUGCAGGGACUGGGCAAGCACAGCUUACUGCUAUAAUUGGGUAUAUAAGGCUUAAGAAUUUGGUCUAUGCCAGGCGUGGUGGCGCAUGCCUUUAAUCCCAGCAC | 0.58
CCCUUUCCUUGCCUUGUGUCCGGAACCUUCACACCUUUACCCCUGCGCUAGCCCCUGGCUGAGAGGAGAGAACCUGUCCUCUGCCGGUGCUCAGUCAAGUGAUGGCUCCC | 0.75
CAAACCCCGAGCUUCCAAGCCUUUUGCUCCAGCCCUGCGGCUUCCCCAGAAGCCUGGGCUUAGGGUGGAGAUGCCGCCUACACACGAUCCUGGCCCUCCACCUGCCUCCA | 0.754
AACUAUCAACAUUGUAAACCAAAUUGCCUUAUUUUCCUUCCAAACUUCAUAUAUCUAUCAGGUAAUAUAGGCUUGAAAAUUGAUAUCCUGUGGUGCUAAAGUACAGUAGA | 0.707
AAAGCAAGAGUAUUUGGAGCAAGAAGCUGCAAUGCGCCAAAUACACAAUAGGCCUUUUCUUUAUCAUUCAUACGACAUUUCUGGUUUAGGUGUAUGUAGUUGGGCCAUGU | 0.578
CAGACGUGCAGUGCCAUAAGGUGCCCCAGUCCUUCUGGAGGCCUGGGCUGCUACUGUUGGCCACCCUGUGUCUAGUGAUGCUCUCUGUGCUCACCUCCUAGGCCAUGGAG | 0.249
UUGUUGUUGUUGAUGUUGUUGUUGUUGUGUAAUGUAACAGCACUUUAAAAGGGCGACAACUGACUCACGAGAUGGCGACCAUCUUGAGCCUAUUUGGGGAGACCUGUAUC | 0.211

A few entries again (set 4):
Sequence | E-score
CAACTCGC | -0.0687
CGGTCCTA | -0.26
CCAGTCCC | -0.262
GCCAGCAC | -0.209
ATCACCAA | 0.138
CCTGGATC | -0.242
AAAGGTTG | -0.0676
AGATTTCC | -0.101
CGTTGGTA | -0.076
